Measurements gathered from unrelated publications.
Lines come from different studies, so protocols differ. Several values in a cell are separate wells, animals, samples, runs or records. ± gives the spread as reported.

| SMILES | assay | system | conditions | scale | measurement | value |
| --- | --- | --- | --- | --- | --- | --- |
| CC1=C[C@H]2c3c(O)cc(CCc4ccccc4)cc3OC(C)(C)[C@@H]2CC1 | LC-MS/MS | male BALB/c mouse, plasma | intraperitoneal, 40 mg/kg, 1 h, added: Δ9-trans-THC 10 mg/kg and cis-PET 50 mg/kg |  | plasma concentration | 1.56 µM |
| CCCCCCCCCCCCCCCC(=O)NCCCC[C@H](NC(=O)[C@H](CCCCN)NC(=O)[C@H](CCCCN)NC(=O)[C@@H]1CCCN1C(=O)CNC(=O)[C@H](CC(C)C)NC(=O)[C@H](CC(C)C)NC(=O)[C@H](Cc1ccc(O)cc1)NC(=O)CNC(=O)[C@H](C)NC(=O)[C@H](CO)NC(=O)[C@H](CC(N)=O)NC(=O)[C@H](CC(C)C)NC(=O)[C@@H](NC(=O)[C@H](Cc1c[nH]c2ccccc12)NC(=O)CNC)[C@@H](C)O)C(=O)N[C@@H](CCCCN)C(N)=O |  | CF-1 mouse, plasma | intraperitoneal, dose not given, 1 h, 6 Hz 32 mA seizure model, full protection |  | plasma concentration | 4500 ng/mL |
| C[C@H](CCC(=O)N[C@@H](CCCCNC(=O)C(F)(F)F)C(=O)O)[C@H]1CC[C@H]2[C@@H]3[C@H](O)C[C@@H]4C[C@H](O)CC[C@]4(C)[C@H]3C[C@H](O)[C@]12C |  | C57BL/6J mouse, plasma | oral, 50 mg/kg, 5 h |  | plasma concentration | 10.3 µM and 0.48 µM and 63.6 µM |
| CN(C)C(CNC(=O)Nc1cc(C(F)(F)F)ccc1N1CCOCC1)c1ccncc1 (stereo not drawn) |  | mouse, C57BL/6J, plasma | intraperitoneal, 240 mg/kg, 1 h |  | plasma concentration | 176000 ng/mL |
| COC(=O)C[C@](O)(CCCC(C)(C)OC(C)=O)C(=O)O[C@@H]1C(OC)=C[C@]23CCCN2CCc2cc4c(cc2[C@H]13)OCO4 |  | CD-1 mouse, plasma | subcutaneous, 1 mg/kg, 24 h |  | plasma concentration | not detected |
| C/C(=N\OCCCN1CCCCC1)c1ccc(C(F)(F)F)cc1 |  | C57BL/6 mouse | dose not given, 0.5 to 4 h |  | plasma concentration | 70 to 280 ng/mL |
| CCCCCCCC(=O)NCCCC[C@H](NC(=O)[C@H](Cc1ccccc1)NC(=O)[C@@H](CCCNC(=N)N)NC(=O)[C@@H](N)Cc1ccc(O)cc1)C(N)=O |  | mouse, CD-1, male, plasma | intravenous, 3 mg/kg, 20 min, added: curcumin nanoemulsion 10 mg/kg | reference: with over without curcumin | plasma concentration ratio | 9.3 fold |
| CC[C@H](C)[C@H](N)C(=O)N[C@H](C(=O)N[C@@H](CCCNC(=N)N)C(=O)N[C@@H](CCCNC(=N)N)C(=O)N[C@@H](C)C(=O)N[C@@H](CC(=O)O)C(=O)N[C@@H](CCCNC(=N)N)C(=O)N[C@@H](C)C(=O)N[C@@H](C)C(=O)N[C@H](C(=O)N1CCC[C@H]1C(=O)NCC(=O)NCC(=O)NCC(=O)NCC(=O)NCC(=O)N[C@@H](CC(N)=O)C(=O)N[C@@H](CCC(N)=O)C(=O)N[C@@H](Cc1c[nH]c2ccccc12)C(=O)N[C@@H](Cc1ccccc1)C(=O)N[C@H](C(=O)O)[C@@H](C)CC)C(C)C)C(C)C |  | BALB/c mouse | intravenous, 20 mg/kg, 24 h |  | plasma concentration | not detected |
| O=C(O)CCn1c(=O)oc2cc(Cl)c(Cl)cc21 |  | mouse, Kmo knockout, plasma | intravenous, 30 mg/kg, 1 h |  | plasma concentration | 351 ± 87 µM |
| O=C1C(P(=O)(O)O)CCCN1O (stereo not drawn) |  | mouse, plasma | subcutaneous, 400 mg/kg, 2 h, detection limit 1 µM |  | plasma concentration | not detected |
| CN(CC(=O)N(Cc1ccc(C2CCCCC2)cc1)c1ccc(C(=O)O)cc1)S(=O)(=O)c1c(F)c(F)c(F)c(F)c1F |  | CD-1 mouse | intravenous, 5 mg/kg, 5 min |  | plasma concentration | 124 ng/mL |
| CCOc1ccc(NC(=S)N(CCO)Cc2cc3cc(C)cc(C)c3[nH]c2=O)cc1 | refers to: irinotecan, SN-38, SN-38-G | BALB/cJ mouse, plasma | oral, 20 µg/day, added: irinotecan 50 mg/kg ip |  | plasma irinotecan level | no effect |

For quick reference, copied from above:
| SMILES | assay | system | conditions | scale | measurement | value |
| --- | --- | --- | --- | --- | --- | --- |
| CCCCCCCCCCCCCCCC(=O)NCCCC[C@H](NC(=O)[C@H](CCCCN)NC(=O)[C@H](CCCCN)NC(=O)[C@@H]1CCCN1C(=O)CNC(=O)[C@H](CC(C)C)NC(=O)[C@H](CC(C)C)NC(=O)[C@H](Cc1ccc(O)cc1)NC(=O)CNC(=O)[C@H](C)NC(=O)[C@H](CO)NC(=O)[C@H](CC(N)=O)NC(=O)[C@H](CC(C)C)NC(=O)[C@@H](NC(=O)[C@H](Cc1c[nH]c2ccccc12)NC(=O)CNC)[C@@H](C)O)C(=O)N[C@@H](CCCCN)C(N)=O |  | CF-1 mouse, plasma | intraperitoneal, dose not given, 1 h, 6 Hz 32 mA seizure model, full protection |  | plasma concentration | 4500 ng/mL |
